Assay results of several laboratories.
Every numbered part comes from another study and shows a few of its results, in no order.

Sample 1 — technique: RNA Bind-n-Seq; form: RNA; medium: in vitro; concentration: 200 nM; notes: whole 134-nt RNA, ends assumed; with: 150 mM KCl; reference: input library; reading: higher = stronger binding; measurement: log2 enrichment
Target: Fragile X messenger ribonucleoprotein 1, C-terminal low-complexity region (Fmr1, Mus musculus, UniProt P35922)
Constant ends, left off below: GGGAGUUCUACAGUCCGACGAUC … UGGAAUUCUCGGGUGUCAAGG
Sequence = GCAGGAAGUAAAAACAAAUGGAAAUGCUUCGGAUAGUGGCAGGGGUGGGGGUUGCUAAGGAAAGUGUGGGAUGGGAGUGGGUAAAGAGUU; result = 0.202
Sequence = GCAGGAAGUAAAAACAAAUGGAAAUGCUUCGGAUAGUGGCAGGGGUGGGGGUUGCUAAGGGAAGGGUGGGAUGGGAGUGGGUAAAGAGUU; result = 0.452
Sequence = UCGGAGGUGGAUUUUGUUUAUUUUUUUAGCUCAUUUCCAGGGGUGGGAAUUUUUUUUUAAUAUGUGUCAUGAAUAAAGUUGUUUUUGAAA; result = -0.758
Sequence = AAGUCCUGUGCUACACAUCGUAUGUACCGAAUCGGGGUUUUUGGGGAGGGGUGGGGAAAGUAUUAUGUUACGCCGUUCGGAUCUGCACUU; result = 1.03
Sequence = UGGCCCUGGUGGCAUGCGGGGAGGAAGAGGUGGCCUCAUGGAUCGGGGUGGUCCCGGUGGAAUGUUCAGAGGUGGCCGUGGUGGAGACAG; result = -0.226
Sequence = GCAGGAAGUAAAAACAAAUGGAAAUGCUUCGGAUAGUGGCAGGGGUGGGGGUUGCUAAGGAAAGGGUGGGAUGGGAGUAAAUAAAGAGUU; result = 0.0252
Sequence = UCAAGUCCUGUGCUACACAUCGUAUGUACCGAAUCGGGAAGGAAGGGGAAGGGGAAAGUAUUAUGUUACGCCGUUCGGAUCUGCACUUCC; result = 0.802
Sequence = CAAGUCCUGUGCUACACAUCGUAUGUACCGAAUCGGUGGUUUUUGGAAAAAAAGGAAAGUAUUAUGUUACGCCGUUCGGAUCUGCACUUC; result = -0.53

Sample 2 — observed: enzyme activity; action: inhibitor; concentration: 20 µM; notes: primary screen; measurement: inhibition
Target: Replicase polyprotein 1ab, main protease (rep, Severe acute respiratory syndrome coronavirus 2, UniProt P0DTD1)
SMILES = CSc1ccc(C(=O)c2nc(O)[nH]c2C)cc1; result = 84.4%
SMILES = Cc1cc(-c2ccc(/C=C3/SC(Nc4ccc(Cl)c(C(=O)O)c4)=NC3=O)o2)c([N+](=O)[O-])cc1C; result = 48.2%
SMILES = NC(Cc1cc(O)c(O)cc1O)C(=O)O (centres unmarked); result = 62.8%
SMILES = CN(CCOc1ccc(-c2ccc3c(c2)OCO3)cc1C(C)(C)C)CC(=O)O; result = 109%

Sample 3 — technique: RNAcompete; form: RNA; medium: in vitro; concentration: 20 nM; notes: 7-mer, probes averaged, single round; reference: mean of 7-mers; reading: higher = stronger binding; measurement: 7-mer Z-score
Target: PABPC1L2, full length, GST fusion (mouse, UniProt A0ABA7IW68)
Construct (chain): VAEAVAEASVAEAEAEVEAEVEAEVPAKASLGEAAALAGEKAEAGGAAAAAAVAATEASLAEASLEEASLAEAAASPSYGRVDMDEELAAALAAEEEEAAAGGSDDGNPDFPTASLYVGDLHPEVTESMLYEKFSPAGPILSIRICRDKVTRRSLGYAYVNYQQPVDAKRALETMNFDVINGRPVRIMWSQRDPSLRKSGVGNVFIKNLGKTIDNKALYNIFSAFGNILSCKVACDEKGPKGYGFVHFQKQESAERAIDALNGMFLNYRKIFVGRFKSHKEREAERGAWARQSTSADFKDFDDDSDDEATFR
Sequence = CUGCGUG; result = -0.22
Sequence = CACCGGC; result = -0.313
Sequence = UAGUACC; result = -0.155
Sequence = CGGUUCA; result = -0.119
Sequence = CUUAAAC; result = 0.282
Sequence = UGGACUG; result = -0.0536
Sequence = AUAAACA; result = 6.51
Sequence = CACUAGC; result = -0.206

Sample 4 — observed: enzyme activity; action: inhibitor; concentration: 20 µM; measurement: inhibition
Target: Replicase polyprotein 1ab, polymerase (rep, Severe acute respiratory syndrome coronavirus 2, UniProt P0DTD1)
SMILES = Cl/C=C/C[N+]12CN3CN(CN(C3)C1)C2; result = 1.21%
SMILES = CC(C)C(=O)c1ccc(O)c(O)c1; result = 8%
SMILES = CCCn1c(=O)c2[nH]c(-c3ccccc3)nc2n(CCC)c1=O; result = 0.61%
SMILES = CC1CCN(CC[C@H]2CCCN2S(=O)(=O)c2cccc(O)c2)CC1; result = -2.74%
SMILES = COC(=O)C[C@](O)(CCC(C)(C)O)C(=O)O[C@@H]1C(OC)=C[C@]23CCCN2CCc2cc4c(cc2[C@H]13)OCO4; result = -1.86%
SMILES = O=C1Cc2cc(CCN3CCN(c4nsc5ccccc45)CC3)c(Cl)cc2N1; result = 12.1%
SMILES = CCCc1nc(C)c2c(O)nc(-c3cc(S(=O)(=O)N4CCN(CC)CC4)ccc3OCC)nn12; result = -4.6%
SMILES = Cc1cc(C)n(-c2cccc([C@H](CC(=O)O)CN3CC[C@@H](CCc4ccc5c(n4)NCCC5)C3)c2)n1; result = 2.25%
SMILES = COc1cc2nc(N3CCN(C(=O)C(C)OC)CC3)nc(N)c2cc1OC (centres unmarked); result = 4.05%
SMILES = C=C1/C(=C\C=C2/CCC[C@]3(C)[C@@H]([C@H](C)/C=C/[C@@H](O)C4CC4)CC[C@@H]23)C[C@@H](O)C[C@@H]1O; result = -6.14%
SMILES = Cn1ccc2cc3c(cc21)CCN3C(=O)Nc1cccnc1; result = -2.62%
SMILES = CC(C)CN(C[C@@H](OP(=O)(O)O)[C@H](Cc1ccccc1)NC(=O)O[C@H]1CCOC1)S(=O)(=O)c1ccc(N)cc1; result = 1.86%
SMILES = C[C@@H]1C[C@H]2[C@@H]3C[C@H](F)C4=CC(=O)C=C[C@]4(C)[C@@]3(Cl)[C@@H](O)C[C@]2(C)[C@H]1C(=O)COC(=O)C(C)(C)C; result = 1.42%
SMILES = Nc1ncnc2c1ncn2[C@@H]1O[C@H](CO)[C@@H](O)[C@H]1O; result = -0.34%
SMILES = CNC(=O)c1cccc(-c2ccc3c(N4CCOC[C@@H]4C)nc(N4CCOC[C@@H]4C)nc3n2)c1; result = 8.82%
SMILES = C[C@H](CCC(=O)O)[C@H]1CC[C@H]2[C@@H]3C[C@H](O)[C@@H]4C[C@H](O)CC[C@]4(C)[C@H]3CC[C@]12C; result = -5.29%
SMILES = O=C(O)c1ccccc1; result = -5.97%
SMILES = CN(C)C(=O)n1nnnc1Cc1ccc(-c2ccccc2)cc1; result = -3.38%
SMILES = Cc1c(-c2ccc(O)cc2)n(Cc2ccc(OCCN3CCCCCC3)cc2)c2ccc(O)cc12; result = 18.6%
SMILES = N[C@H](C(=O)O)c1ccc(C(=O)O)c(C(=O)O)c1; result = -18.6%
SMILES = CCNC(=O)c1[nH]nc(-c2cc(Cl)c(O)cc2O)c1-c1ccc(OC)cc1; result = -1.82%
SMILES = NC(=Nc1ccccc1)Nc1ccccc1; result = 7.67%
SMILES = C[N+]1(C)CCCC(OC(=O)C(O)(c2ccccc2)c2ccccc2)C1 (centres unmarked); result = 19.3%
SMILES = O=C(Nc1ccc(N2CCC(C(=O)N3CCOCC3)CC2)cc1)c1cnc(Oc2ccccc2)nc1; result = 2.21%
SMILES = O=c1[nH]c2ccccc2n1C1CCN(CCCC(c2ccc(F)cc2)c2ccc(F)cc2)CC1; result = 13.4%

Sample 5 — cell line: HEK-293T; observed: pseudovirus infection; technique: FDA-approved drug library screen; organism: VSV pseudotyped with SARS-CoV-2 spike; concentration: 10 µM; time: 16 h; reference: vehicle-treated; measurement: GFP-positive cells
Structure (SMILES) = C[N+]12CCC(CC1)C(OC(=O)C(O)(c1ccccc1)c1ccccc1)C2 (centres unmarked); result = 93.7%
Structure (SMILES) = OC(c1cc(C(F)(F)F)nc2c(C(F)(F)F)cccc12)C1CCCCN1 (centres unmarked); result = 37.8%
Structure (SMILES) = Cc1cc(C2CCCCC2)n(O)c(=O)c1; result = 58.3%
Structure (SMILES) = CCOC(=O)c1cncn1[C@H](C)c1ccccc1; result = 79.3%

Sample 6 — technique: Spec-seq; form: double-stranded DNA, one strand shown; medium: in vitro; concentration: not given; notes: whole probe, mean of replicates; reference: not given; reading: lower = stronger binding; measurement: relative binding energy; constant ends, left off below: GAGTCGTCTCGTCAGCAC … CCGTAGAGCACTCAGGTC
Target: POU domain, class 5, transcription factor 1, POU domain (Pou5f1, Mus musculus, UniProt P20263, residues 131-289)
Sequence of UniProt P20263 (131-289, looked up): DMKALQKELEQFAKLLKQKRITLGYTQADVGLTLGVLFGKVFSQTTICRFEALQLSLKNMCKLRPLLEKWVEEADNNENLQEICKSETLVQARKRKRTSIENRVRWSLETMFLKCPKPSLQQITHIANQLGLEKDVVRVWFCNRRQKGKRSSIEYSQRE
Sequence = ATGCTGTA; result = 0.611 ln ratio
Sequence = ATGCCAGA; result = 0.397 ln ratio
Sequence = ATGCGGTA; result = 0.606 ln ratio
Sequence = ACACTAAT; result = 0.442 ln ratio
Sequence = ATGTTAAT; result = -2.31 ln ratio
Sequence = ATGCTCGC; result = 0.856 ln ratio
Sequence = CAGTTAAT; result = 0.733 ln ratio
